Measurements gathered from unrelated publications.
Each numbered part is a random draw from the data of one study; scales do not carry over between parts.

Sample 1
Target: Sal-like protein 4, full length isoform A (SALL4, Homo sapiens, UniProt Q9UJQ4, residues 1-1053)
Sequence of UniProt Q9UJQ4 (whole entry, looked up): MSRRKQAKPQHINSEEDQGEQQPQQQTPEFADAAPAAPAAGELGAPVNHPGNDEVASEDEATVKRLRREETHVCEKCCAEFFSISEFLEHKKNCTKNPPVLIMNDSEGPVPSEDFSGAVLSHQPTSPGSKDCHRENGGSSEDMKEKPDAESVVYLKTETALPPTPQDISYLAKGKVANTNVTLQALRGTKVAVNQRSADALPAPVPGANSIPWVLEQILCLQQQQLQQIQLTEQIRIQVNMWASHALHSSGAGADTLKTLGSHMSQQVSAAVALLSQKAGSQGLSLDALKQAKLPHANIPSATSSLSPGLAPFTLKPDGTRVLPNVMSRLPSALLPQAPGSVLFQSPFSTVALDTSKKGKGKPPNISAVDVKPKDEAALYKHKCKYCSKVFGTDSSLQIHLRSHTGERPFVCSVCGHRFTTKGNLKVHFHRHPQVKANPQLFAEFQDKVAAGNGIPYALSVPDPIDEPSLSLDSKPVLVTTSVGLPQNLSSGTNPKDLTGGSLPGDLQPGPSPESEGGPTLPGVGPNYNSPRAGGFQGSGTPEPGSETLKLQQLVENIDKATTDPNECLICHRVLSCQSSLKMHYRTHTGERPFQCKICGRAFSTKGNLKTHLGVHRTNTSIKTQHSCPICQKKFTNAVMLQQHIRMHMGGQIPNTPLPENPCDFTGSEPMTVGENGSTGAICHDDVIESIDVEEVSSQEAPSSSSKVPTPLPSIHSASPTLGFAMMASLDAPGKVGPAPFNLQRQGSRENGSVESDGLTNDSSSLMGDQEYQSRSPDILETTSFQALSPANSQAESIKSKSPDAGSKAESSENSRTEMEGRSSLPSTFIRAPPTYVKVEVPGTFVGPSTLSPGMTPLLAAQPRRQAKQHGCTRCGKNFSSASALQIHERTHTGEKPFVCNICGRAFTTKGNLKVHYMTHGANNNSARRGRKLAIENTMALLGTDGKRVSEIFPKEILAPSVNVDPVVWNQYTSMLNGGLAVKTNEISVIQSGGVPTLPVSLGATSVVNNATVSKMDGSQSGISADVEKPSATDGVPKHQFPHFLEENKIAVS
Method: universal PBM
Form: double-stranded DNA, one strand shown
Sample: in vitro
Concentration: 600 nM
Setting: 8-mer, flanks averaged, mean of replicates
Reading: higher = stronger binding
For `CTTTTGGC`, the E-score was -0.0444.
The E-score of `CCACCAAA` is reported as 0.037.
With `AACGATCT` the E-score was -0.0297.
For `GTTGGACA`, the E-score was 0.0982.
With `GGGTTTAC` the E-score was -0.0416.
With `AGACAACG` the E-score was -0.107.
With `AGTAAGTC` the E-score was -0.108.
With `AGTCCGGC` the E-score was -0.29.
`CAACATCA` has an E-score of 0.222.
With `AACTCTCG` the E-score was -0.104.
With `ATGATAGG` the E-score was 0.0115.
With `CTTACTTC` the E-score was 0.115.
With `TGAAGGCA` the E-score was 0.0901.
`CCCGATGC` has an E-score of -0.369.
The E-score of `AATGTCAC` is reported as 0.0763.
With `ATATCGGC` the E-score was 0.0245.
With `AGATTCAT` the E-score was 0.236.
The E-score of `CGATTGAA` is reported as -0.0354.
`ACCGGCGG` has an E-score of -0.336.
`ATTACGAC` gave an E-score of 0.224.
The E-score of `AAGGTGCG` is reported as -0.182.
The E-score of `CGAAGACA` is reported as -0.176.
`ATGGTTAA` gave an E-score of 0.23.
`GTTTGACA` has an E-score of 0.207.
With `ACAGTCTC` the E-score was -0.00924.

Sample 2
Target: Prothrombin, mature alpha-thrombin (F2, Homo sapiens, UniProt P00734)
Method: aptamer microarray, sandwich
Form: DNA with 2'F-ANA
Sample: in vitro
Concentration: 200 nM
Setting: whole 15-mer aptamer, many near background
Together with: Cy3 exosite-II aptamer, 400 nM
Reading: higher = stronger binding
Strand: GGTTGGTGTGGTTGG
For `2'F-ANA at 1 2 3 4 6 10 11`, “mean fluorescence intensity” read 56.5 a.u.
Under “mean fluorescence intensity”, `2'F-ANA at 13 15` is recorded as 486 a.u.
`2'F-ANA at 1 4 5 6 9 14 15`: “mean fluorescence intensity” 44.8 a.u.
`2'F-ANA at 1 2 7 8 9 11 12 14`: “mean fluorescence intensity” 65.7 a.u.
`2'F-ANA at 1 3 4 5 7 8 9 10 11 13 14 15` — result for “mean fluorescence intensity”: 46.9 a.u.
For `2'F-ANA at 1 3 5 6 9 12 14 15`, “mean fluorescence intensity” read 47.2 a.u.
For `2'F-ANA at 1 4 5 6 8 14 15`, “mean fluorescence intensity” read 54.7 a.u.
For `2'F-ANA at 4 5 8 9 12`, “mean fluorescence intensity” read 168 a.u.
Under “mean fluorescence intensity”, `2'F-ANA at 2 5 7 8 9 10 14` is recorded as 45.1 a.u.
For `2'F-ANA at 1 2 8 10 12 13 15`, “mean fluorescence intensity” read 63.2 a.u.
Under “mean fluorescence intensity”, `2'F-ANA at 3 6 8 14 15` is recorded as 589 a.u.
`2'F-ANA at 1 3 6 7 10 12 13 14` — result for “mean fluorescence intensity”: 59.1 a.u.
`2'F-ANA at 9 11 13 14` — result for “mean fluorescence intensity”: 193 a.u.
For `2'F-ANA at 3 5 6 8`, “mean fluorescence intensity” read 133 a.u.
`2'F-ANA at 1 2 3 6 7 8 9 10 11` — result for “mean fluorescence intensity”: 78.4 a.u.
Under “mean fluorescence intensity”, `2'F-ANA at 1 2 5 6 7 11 13` is recorded as 48.3 a.u.
Under “mean fluorescence intensity”, `2'F-ANA at 2 5 6 7 8 9 10 12 14 15` is recorded as 57.9 a.u.
Under “mean fluorescence intensity”, `2'F-ANA at 1 2 3 7 8 10 11 13 14 15` is recorded as 65 a.u.
Under “mean fluorescence intensity”, `2'F-ANA at 2 3 4 10 11 15` is recorded as 321 a.u.
`2'F-ANA at 4 6 8 12 14`: “mean fluorescence intensity” 113 a.u.
`2'F-ANA at 1 2 3 6 9 10 11 13`: “mean fluorescence intensity” 61.7 a.u.
For `2'F-ANA at 4 5 7 9 10 11 12`, “mean fluorescence intensity” read 49.4 a.u.
For `2'F-ANA at 4 5 6 10 11 13 14 15`, “mean fluorescence intensity” read 123 a.u.
`2'F-ANA at 1 2 4 7 8 9 10 11 12 14 15`: “mean fluorescence intensity” 47.6 a.u.
For `2'F-ANA at 1 3 5 6 7 9 10 11 12 14 15`, “mean fluorescence intensity” read 57.9 a.u.

Sample 3
Target: Histone acetyltransferase KAT6A, both winged helices, GST fusion (KAT6A, Homo sapiens, UniProt Q92794, residues 1-181)
Method: protein binding microarray
Form: double-stranded DNA, one strand shown
Sample: in vitro
Concentration: not given
Setting: 8-mer, flanks averaged, mean of 2 arrays, mostly near background
Relative to: not given
Reading: higher = stronger binding
Construct (chain): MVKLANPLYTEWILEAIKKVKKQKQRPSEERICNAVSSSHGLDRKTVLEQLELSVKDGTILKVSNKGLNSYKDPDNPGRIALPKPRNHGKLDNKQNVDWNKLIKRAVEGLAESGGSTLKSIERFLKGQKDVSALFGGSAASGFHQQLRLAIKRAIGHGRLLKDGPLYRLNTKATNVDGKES
The E-score of `CAACCAGA` is reported as -0.0977.
`GAGGGAAC` has an E-score of -0.0492.
`GCTCATAA` gave an E-score of 0.00797.
With `CATTTGCC` the E-score was -0.0662.
The E-score of `CTGGGAAG` is reported as -0.0945.
`CCGCTCCC` gave an E-score of 0.244.
`CGGCAGGA` gave an E-score of 0.208.
`TCCCTCAA` has an E-score of -0.0649.
`GCACAGTA` has an E-score of 0.000145.
The E-score of `GACTTGAC` is reported as -0.242.
For `AAATCCCG`, the E-score was 0.141.
`AACCTGAT` has an E-score of -0.165.
The E-score of `ACGTCAGA` is reported as -0.173.
For `CCAGGTTA`, the E-score was -0.0804.
With `GCTCCGAC` the E-score was 0.0899.
With `ATAAAGTA` the E-score was -0.176.
For `CCTCCATC`, the E-score was -0.211.

Sample 4
Target: RNA binding protein fox-1 homolog 2, RRM domain, GST-SBP tag (RBFOX2, Homo sapiens, UniProt O43251-10, residues 100-194)
Method: RNA Bind-n-Seq
Form: RNA
Sample: in vitro
Concentration: 365 nM
Setting: natural RNA segment, single round, ends assumed
Relative to: no-protein control
Reading: higher = stronger binding
Residues (chain): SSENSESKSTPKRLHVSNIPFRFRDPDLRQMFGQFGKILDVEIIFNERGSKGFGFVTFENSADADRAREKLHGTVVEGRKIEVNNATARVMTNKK
`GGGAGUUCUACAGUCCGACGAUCGAACUGUAAAUCUGUUGCCCAAUCUUAACAUUUUUGAGCUGCAUUUAAGUAGACUUUGGACCGUUAAGCUGGGCAAAGGAAAUGACAAGGGGACGGGGUCUGUGAGAGUCUGGAAUUCUCGGGUGCCAA`: “RBNS enrichment (R)” 0.464.
`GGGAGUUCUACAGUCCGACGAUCUAAUACUAAACCGUUGAGUUUCUAAAUAUUUAUUUAUUCUAACAAAAAGCAAUUACUACAAAUGGAUGACACAUUUAAUGAACACAAUUUUAUUUUUUUUCUGUAACUGUUGGAAUUCUCGGGUGCCAA`: “RBNS enrichment (R)” 0.492.
Under “RBNS enrichment (R)”, `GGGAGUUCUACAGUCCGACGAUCAGAGCCAUUUUUUAAAAAUGCCGAGCAGGGCAAUGCAAGUACAGCCAAAUAUUAGACUUGAUGUGCAAUCUUCGGUCCUUUUUAAUCUGGGGUAUUAUAGGCAGUACUUUUGGAAUUCUCGGGUGCCAA` is recorded as 0.447.
`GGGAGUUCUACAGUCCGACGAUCGAAAUGGCGAGCAGACAUCUGUUCCAUGCACUAGUUAAUGCUACUGGCUCAGCAUAUACAAGUUAGCUUGCUUUAGGCAAGGGACCUUUCUUGUGAUGGACGUGCACUACUGGAAUUCUCGGGUGCCAA`: “RBNS enrichment (R)” 0.334.
Under “RBNS enrichment (R)”, `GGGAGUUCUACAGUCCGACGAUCCUAAUGGUUAAGACACCAGUAACAAAAACACAUGAUUUGGAAAUACUUUGGCUUUUUCAUAUACCUAGUGGUGCCUUAUCAUAAUAGCACUGUUACAUGAAAUAAGCCCCUGGAAUUCUCGGGUGCCAA` is recorded as 0.444.
`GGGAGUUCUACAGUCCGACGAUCGUUUGUUAUUUUUGUUACUGCCUUUUUUGAGAGAUUAUGUAUCUAUAUAGCUACCUGUCUAGAUCUGCAUCUGUGUGCCUAUGUAUAUAUUAUACACACACAGAGGCACUUGGAAUUCUCGGGUGCCAA` — result for “RBNS enrichment (R)”: 0.461.
`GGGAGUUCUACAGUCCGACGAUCCCCCAGGAAUCUCUAAGACCAGGGCUGGGGCAGUGUCUGUCACUGGCUUGUUUGUUCCCUACCAAUAUUCUGUUGCUGUUUGAAGUAGUGCCAGGGUCCCCUGGGAAGAUUGGAAUUCUCGGGUGCCAA`: “RBNS enrichment (R)” 0.894.
`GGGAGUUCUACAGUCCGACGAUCUGUCCUCCCAAGAGAAGCACUUCAGUGGUGCAGUGGUAAGAGCCCACAGCAUUGAGGCCAGCCUGACUGAAGGAUGAUGUGAGGCUGUUUGUCACUUCUGUUCUUUUCCCUGGAAUUCUCGGGUGCCAA`: “RBNS enrichment (R)” 0.338.
For `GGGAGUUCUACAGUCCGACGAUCAACCACUAUGCCAGGCCCGGAGCCUCUGAGGCAUCGGCCAGUCCAGGCCCUCAUCUGAGGUAAGAAUGUACAUCAGCUGGCAGCCCCAAGCAAGUGGCUGCAGGGACACUUGGAAUUCUCGGGUGCCAA`, “RBNS enrichment (R)” read 0.616.
Under “RBNS enrichment (R)”, `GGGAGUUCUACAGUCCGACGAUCCCAUCCAUUCAUCGCCAUGUGUCCGCAAGACUGUCUCCAUGACCCUGAAAAAGGACUCUCGAGAUGAAAUCCUUUAUUCAAAUGGGACAGCAAGAAGGAAAAGCCAAUGUUGGAAUUCUCGGGUGCCAA` is recorded as 0.467.
For `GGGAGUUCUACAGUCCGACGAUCUAAAUGUCUAGGCUUCCAUUUAAAACUACACAAAUGACUUGGGAUCUUUUUAGCACUAAGGAAUUUGAUUUCAGCCUUCCAGCUGUUGCUGUGAGUUGUUCCAGACCUUUUGGAAUUCUCGGGUGCCAA`, “RBNS enrichment (R)” read 0.393.
For `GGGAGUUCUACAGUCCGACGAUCUUUUUACAUUUAAUCUAACAUGUUAACACGUUCUAACAGGGUUUCUAUGAGCAGCUGCUGUAACAUACUCAUCAACUAUGAUAGACUUAACACUUGUUACCUAAUGAACAUGGAAUUCUCGGGUGCCAA`, “RBNS enrichment (R)” read 0.439.

Sample 5
Target: ATP-dependent RNA helicase DDX3X, helicase core (DDX3X, Homo sapiens, UniProt O00571, residues 132-607)
Sequence of UniProt O00571 (132-607, looked up): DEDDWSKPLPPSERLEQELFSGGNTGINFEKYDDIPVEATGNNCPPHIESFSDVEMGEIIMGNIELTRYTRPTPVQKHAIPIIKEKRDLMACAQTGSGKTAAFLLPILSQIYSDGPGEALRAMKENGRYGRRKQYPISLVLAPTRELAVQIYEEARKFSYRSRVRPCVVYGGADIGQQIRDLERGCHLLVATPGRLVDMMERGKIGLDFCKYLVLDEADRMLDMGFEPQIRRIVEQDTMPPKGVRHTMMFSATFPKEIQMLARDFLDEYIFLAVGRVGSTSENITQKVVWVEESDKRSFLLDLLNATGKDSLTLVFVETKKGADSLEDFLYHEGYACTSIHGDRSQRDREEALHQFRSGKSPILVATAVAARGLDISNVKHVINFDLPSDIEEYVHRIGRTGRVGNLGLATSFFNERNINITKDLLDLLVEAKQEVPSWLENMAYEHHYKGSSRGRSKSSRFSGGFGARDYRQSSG
Method: RNA Bind-n-Seq
Form: RNA
Sample: in vitro
Concentration: 90 pmol
Setting: 4-mer, random 30-nt RNA, single round
Together with: 3 µM DMDA-PatA, 2 mM ADP, 2 mM phosphate
Relative to: input library
Reading: higher = stronger binding
`UAGG` gave a 4-mer enrichment of 1.17 fold.
With `AGCA` the 4-mer enrichment was 0.981 fold.
With `AGAC` the 4-mer enrichment was 0.927 fold.
For `UCGC`, the 4-mer enrichment was 0.924 fold.
The 4-mer enrichment of `AGCC` is reported as 0.896 fold.
For `AAGA`, the 4-mer enrichment was 1.19 fold.
For `UCCU`, the 4-mer enrichment was 0.872 fold.
`ACGU` has a 4-mer enrichment of 0.926 fold.
With `UGGU` the 4-mer enrichment was 0.971 fold.
With `AGCU` the 4-mer enrichment was 0.799 fold.
`GUUC` has a 4-mer enrichment of 0.906 fold.
`AUUC` has a 4-mer enrichment of 0.878 fold.
For `UUUU`, the 4-mer enrichment was 1.13 fold.
`CGAC` has a 4-mer enrichment of 0.838 fold.
`UCUC` gave a 4-mer enrichment of 0.867 fold.

Some of these lines once more (sample 2):
Under “mean fluorescence intensity”, `2'F-ANA at 1 2 3 7 8 10 11 13 14 15` is recorded as 65 a.u.
Under “mean fluorescence intensity”, `2'F-ANA at 13 15` is recorded as 486 a.u.
For `2'F-ANA at 1 3 5 6 7 9 10 11 12 14 15`, “mean fluorescence intensity” read 57.9 a.u.
`2'F-ANA at 1 2 7 8 9 11 12 14`: “mean fluorescence intensity” 65.7 a.u.
`2'F-ANA at 1 4 5 6 9 14 15`: “mean fluorescence intensity” 44.8 a.u.
`2'F-ANA at 1 2 4 7 8 9 10 11 12 14 15`: “mean fluorescence intensity” 47.6 a.u.
Under “mean fluorescence intensity”, `2'F-ANA at 2 3 4 10 11 15` is recorded as 321 a.u.
